Measured values gathered from unrelated publications.
Numbered parts are unrelated; each lists some results of a single study.

Sample 1
Target: Transcription factor Sp1 (SP1, Homo sapiens, UniProt P08047, residues 1-785, full length assumed)
Sequence of UniProt P08047 (whole entry, looked up): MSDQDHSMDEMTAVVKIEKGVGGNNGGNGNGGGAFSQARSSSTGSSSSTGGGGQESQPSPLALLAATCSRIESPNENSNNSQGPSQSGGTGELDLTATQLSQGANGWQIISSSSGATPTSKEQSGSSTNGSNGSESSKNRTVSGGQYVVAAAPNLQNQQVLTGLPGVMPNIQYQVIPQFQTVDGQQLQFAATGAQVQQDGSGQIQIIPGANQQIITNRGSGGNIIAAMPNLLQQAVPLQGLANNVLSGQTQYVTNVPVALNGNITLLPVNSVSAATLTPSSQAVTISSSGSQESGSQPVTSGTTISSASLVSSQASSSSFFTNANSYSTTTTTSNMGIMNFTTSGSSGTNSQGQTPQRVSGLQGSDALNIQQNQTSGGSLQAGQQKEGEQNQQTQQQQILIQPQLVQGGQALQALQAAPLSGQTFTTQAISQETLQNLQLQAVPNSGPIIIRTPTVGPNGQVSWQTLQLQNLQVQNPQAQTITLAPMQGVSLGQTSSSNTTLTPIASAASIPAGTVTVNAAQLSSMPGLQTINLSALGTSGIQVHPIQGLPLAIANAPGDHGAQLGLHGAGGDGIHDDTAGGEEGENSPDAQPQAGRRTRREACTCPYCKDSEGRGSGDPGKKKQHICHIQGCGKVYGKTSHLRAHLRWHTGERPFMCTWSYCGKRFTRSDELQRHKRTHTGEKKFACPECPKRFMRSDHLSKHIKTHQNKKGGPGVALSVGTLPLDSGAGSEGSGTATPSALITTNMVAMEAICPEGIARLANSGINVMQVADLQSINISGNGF
Method: protein-binding microarray
Form: double-stranded DNA, one strand shown
Medium: in vitro
Tested at: not given
Notes: k-mer, scored over probes, only values ≥0.25
Reading: higher = stronger binding
Strand	E-score
TACACATA	0.324
ATCCCGAT	0.265
ATACGTAT	0.271
CATGTGTA	0.284

Sample 2
Target: Interferon regulatory factor 7, full length, phosphomimetic (IRF7, Homo sapiens, UniProt Q92985, residues 1-503, S471D/S472D/S475D/S476D/S477D/S483D/S484D/S487D)
Method: protein-binding microarray
Form: double-stranded DNA, one strand shown
Medium: in vitro
Tested at: 2200 nM top
Notes: 60-bp whole probe
Together with: salmon DNA 0.4 mg/ml
Relative to: random background probes
Reading: higher = stronger binding
Target sequence (chain): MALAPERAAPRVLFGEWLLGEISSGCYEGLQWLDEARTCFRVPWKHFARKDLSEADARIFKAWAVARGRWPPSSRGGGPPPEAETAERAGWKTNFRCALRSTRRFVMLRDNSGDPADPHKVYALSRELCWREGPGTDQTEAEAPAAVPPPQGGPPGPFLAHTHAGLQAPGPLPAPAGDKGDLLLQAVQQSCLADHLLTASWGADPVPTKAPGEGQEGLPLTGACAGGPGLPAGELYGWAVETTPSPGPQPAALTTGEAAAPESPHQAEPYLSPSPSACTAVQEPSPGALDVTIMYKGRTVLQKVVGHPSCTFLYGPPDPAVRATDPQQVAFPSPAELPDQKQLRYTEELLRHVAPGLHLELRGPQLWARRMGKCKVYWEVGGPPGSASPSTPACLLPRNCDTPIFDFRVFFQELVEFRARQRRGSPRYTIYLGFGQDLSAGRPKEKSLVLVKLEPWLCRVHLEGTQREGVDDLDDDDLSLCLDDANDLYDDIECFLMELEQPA
Strand	fitted relative affinity [z-score]
GCCTAGCACTAGCTTCTCAATTAAAAAAAGTGCTAGGTCTTGATTCGCTTGACGCTGCTG	-0.509
GCCTAGCACCTGAGAATGGGGTTTGCAGCCGTGCTAGTCTTGATTCGCTTGACGCTGCTG	-0.645
GCCTAGCACTTTTGTTTTTCATTATTGTCGTGCTAGGTCTTGATTCGCTTGACGCTGCTG	6.36
GCCTAGCACCACGGTATCGGTATCGGGACGTGCTAGGTCTTGATTCGCTTGACGCTGCTG	0.318

Sample 3
Target: Histone acetyltransferase KAT6A, winged helix 1, GST fusion (KAT6A, Homo sapiens, UniProt Q92794, residues 1-85)
Method: protein binding microarray
Form: double-stranded DNA, one strand shown
Medium: in vitro
Tested at: not given
Notes: 8-mer, flanks averaged, mean of 2 arrays, mostly near background
Relative to: not given
Reading: higher = stronger binding
Residues (chain): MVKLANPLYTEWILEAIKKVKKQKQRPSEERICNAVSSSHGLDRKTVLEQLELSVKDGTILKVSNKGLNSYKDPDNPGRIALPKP
Strand	E-score
CGGGTTTC	0.26
GGAGATCA	-0.098
CAAGACGG	0.0532
AATGGTGC	-0.0707

Single results of other studies
Molecule	target	assay	test system	conditions	scale	endpoint	value
PhoQ, residues 284 288 289 292 302 303 TYGVAM	PhoP, residues 12 14 15 18 19 NNFVT (Escherichia coli, UniProt P23836)	Sort-seq, measured: YFP reporter	E. coli	PhoQ-PhoP variant library, together with: 10 µM Mg2+	relative to: high Mg2+ state, higher = stronger signaling	fold induction	1.68

Repeated from above (sample 2):
Strand	fitted relative affinity [z-score]
GCCTAGCACCACGGTATCGGTATCGGGACGTGCTAGGTCTTGATTCGCTTGACGCTGCTG	0.318
